Results collected from several papers.
± marks the error that the study gave.

`CC[C@H](C)[C@H](NC(=O)[C@H](CCCNC(=N)N)NC(=O)[C@H](CCCCN)NC(=O)[C@H](Cc1ccc(O)cc1)NC(=O)[C@H](CC(=O)O)NC(=O)[C@H](C)NC(=O)CNC(=O)CCOCCOCCOCCNC(=O)CN1CCN(CC(=O)O)CCN(CC(=O)O)CCN(CC(=O)O)CC1)C(=O)N[C@H](C(=O)N[C@H](C(=O)N[C@@H](CCCCN)C(=O)N[C@H](C(=O)N[C@@H](CC(N)=O)C(N)=O)C(C)C)C(C)C)[C@@H](C)O` [copper-64 labelled] has a tissue uptake of 1.42 ± 0.212 %ID/g (ex vivo gamma counting; C57BL/6J male mice, B16-F10 tumour, spleen; intravenous, 1.85 MBq, 5 min).
`COc1ccccc1-c1n[nH]c2nc(NC3CCN(C(=O)Cc4ccc(F)cc4F)CC3)ncc12` gave a relative abundance of 0.95 (bead binding, competition bead pull-down, measured: LINJ.33.0600; Leishmania donovani extract; 10 µM; relative to: vehicle).
`CCCC[C@H]1C(=O)N(C)[C@@H](CCCC)C(=O)N[C@@H](CCCNC(=O)CN2CCN(CC(=O)O)CCN(CC(=O)O)CCN(CC(=O)O)CC2)C(=O)N[C@H](C(=O)NCC(N)=O)CSCC(=O)N[C@@H](Cc2ccc(O)cc2)C(=O)N(C)[C@@H](C)C(=O)N[C@@H](CC(N)=O)C(=O)N2CCC[C@H]2C(=O)N[C@@H](Cc2c[nH]cn2)C(=O)N[C@@H](CC(C)C)C(=O)N(C)CC(=O)N[C@@H](Cc2c[nH]c3ccccc23)C(=O)N[C@@H](CO)C(=O)N[C@@H](Cc2c[nH]c3ccccc23)C(=O)N1C` [gallium-68 labelled] gave a tissue uptake of 9.84 ± 0.53 %ID/g (NOD/SCID mice with CHO-hPD-L1 xenograft, blood; 30 min post injection).
The tissue uptake of `C[C@H](O)[C@@H](NC(=O)[C@H]1CCCN1C(=O)[C@@H](CCCCN)NC(=O)[C@@H](CO)NC(=O)[C@@H](Cc1ccc(O)cc1)NC(=O)[C@@H](CC(N)=O)NC(=O)CCOCCOCCOCCNC(=O)CN1CCN(CC(=O)O)CCN(CC(=O)O)CCN(CC(=O)O)CC1)C(=O)N[C@H](CC(=O)O)C(=O)N[C@H](CCCNC(=N)N)C(=O)N[C@H](CCC(N)=O)C(=O)N[C@H](Cc1ccc(O)cc1)C(=O)N[C@H](Cc1c[nH]cn1)C(=O)N[C@H](Cc1ccccc1)C(N)=O` [gallium-68 labelled] is reported as 0.77 ± 0.75 %ID/g (BALB/c nude mice U-87 MG tumour, pancreas; intravenous, 1.85 MBq, 0.5 h, radiolabelled).
`CC[C@H](C)[C@H](NC(=O)[C@H](CCCNC(=N)N)NC(=O)[C@H](CCCCN)NC(=O)[C@H](Cc1ccc(O)cc1)NC(=O)[C@H](CC(=O)O)NC(=O)[C@H](C)NC(=O)CNC(=O)CCOCCOCCOCCNC(=O)CN1CCN(CC(=O)O)CCN(CC(=O)O)CCN(CC(=O)O)CC1)C(=O)N[C@H](C(=O)N[C@@H](CC(C)C)C(=O)N[C@@H](CCCCN)C(=O)N[C@H](C(=O)N[C@@H](CC(N)=O)C(N)=O)C(C)C)[C@@H](C)O` [copper-64 labelled] has a tissue uptake of 5.24 ± 0.285 %ID/g (ex vivo gamma counting; C57BL/6J male mice, B16-F10 tumour, spleen; intravenous, 1.85 MBq, 5 min).
With `CN1Cc2cc(Cl)ccc2-n2c(nnc2C2CCN(c3cccc([18F])n3)CC2)C1` the tissue uptake was 6.68 ± 0.7 %ID/g (C57BL/6 mouse male, heart; intravenous, 3.7 MBq, 5 min).
Under “serum total protein”, `O=C1NC2(CC2)COc2ncc(F)cc2[C@H]2COCCN2c2ccn3ncc1c3n2` is recorded as 64.4 ± 4.1 g/L (Sprague-Dawley rat, female, serum; oral, 10 mg/kg/day, end of recovery, 4-week subacute toxicity).
With `CC(C)(C)C(=O)OCOP(=O)(OCOC(=O)C(C)(C)C)C1CCCN(O)C1=O` (stereo not drawn) the log LC50 was -4.2 log M (M14).
With `CC[C@H](C)[C@H](NC(=O)[C@H](CCCCN)NC(=O)CNC(=O)[C@H](CC(C)C)NC(=O)[C@H](Cc1ccccc1)NC(=O)[C@H](CCCCN)NC(=O)[C@H](CO)NC(=O)[C@H](Cc1ccccc1)NC(=O)[C@H](Cc1c[nH]c2ccccc12)NC(=O)[C@H](CCC(N)=O)NC(=O)[C@@H](NC(=O)[C@H](Cc1ccccc1)NC(=O)CCCCCNC(=O)CN1CCN(CC(=O)O)CCN(CC(=O)O)CCN(CC(=O)O)CC1)C(C)C)C(=O)N[C@@H](CCC(=O)O)C(=O)N1CCC[C@H]1C(=O)N[C@@H](CC(=O)O)C(=O)N[C@H](C(=O)N[C@@H](CO)C(=O)N[C@@H](CCC(N)=O)C(=O)N[C@H](C(=O)N[C@@H](CCC(N)=O)C(=O)N[C@@H](CC(=O)O)C(=O)N1CCC[C@H]1C(=O)N[C@@H](CC(N)=O)C(=O)N[C@@H](CC(=O)O)C(=O)N[C@@H](CCC(N)=O)C(=O)N[C@@H](Cc1ccc(O)cc1)C(=O)N[C@@H](CCC(=O)O)C(=O)N1CCC[C@H]1C(=O)N[C@@H](Cc1ccccc1)C(=O)O)C(C)C)C(C)C` [copper-64 labelled] the tissue uptake was 2.06 ± 1 %ID/g (GZMB-/- mice, CT26 tumour-bearing, stomach; 2 h, vehicle-treated).
For `CC(C)C[C@@H](NC(=O)[C@@H](CCCNC(=N)N)NC(=O)[C@@H](Cc1c[nH]cn1)NC(=O)[C@@H](Cc1c[nH]c2ccccc12)NC(=O)[C@@H](Cc1c[nH]cn1)NC(=O)[C@@H](Cc1ccccc1)NC(=O)[C@H](NC(=O)[C@@H](Cc1ccc(O)cc1)NC(=O)CNC(=O)CNC(=O)CCOCCOCCOCCNC(=O)CN1CCN(CC(=O)O)CCN(CC(=O)O)CC1)[C@H](C)O)C(=O)N[C@H](CC(N)=O)C(=O)N1CCC[C@@H]1C(=O)O` [gallium-68 labelled], the tissue uptake was 0.91 ± 0.34 %ID/g (C57BL/6 mice, male, pancreas; intravenous, 1.85 MBq, 60 min, added: blocking antibody).
`Cc1nc2cccc(OCC(C)(C)C(=O)NC(C)C)c2c(N)c1C(=O)[O-].[Na+]` — result for “revertant colonies per plate”: 121 ± 9 (Salmonella typhimurium; TA100; 0.32 mg per plate, with S9, plate incorporation).
For `CSCC[C@H](NC(=O)CNC(=O)[C@H](CCCCN)NC(=O)[C@H](CC(C)C)NC(=O)[C@@H]1CCCN1C(=O)[C@H](CO)NC(=O)[C@H](Cc1c[nH]cn1)NC(=O)[C@H](Cc1c[nH]c2ccccc12)NC(=O)[C@H](CCCNC(=N)N)NC(=O)[C@H](CC(C)C)NC(=O)[C@H](CCCNC(=N)N)NC(=O)[C@H](Cc1c[nH]c2ccccc12)NC(=O)[C@H](CS)NC(=O)CCCCCNC(=O)CN1CCN(CC(=O)O)CCN(CC(=O)O)CCN(CC(=O)O)CC1)C(=O)O` [copper-64 labelled], the tissue uptake was 1.75 ± 0.06 %ID/g (PET imaging; C57BL/6J mice bearing B16-F10 tumours, tumour; intravenous, 38 h).

A few entries again:
`CC[C@H](C)[C@H](NC(=O)[C@H](CCCNC(=N)N)NC(=O)[C@H](CCCCN)NC(=O)[C@H](Cc1ccc(O)cc1)NC(=O)[C@H](CC(=O)O)NC(=O)[C@H](C)NC(=O)CNC(=O)CCOCCOCCOCCNC(=O)CN1CCN(CC(=O)O)CCN(CC(=O)O)CCN(CC(=O)O)CC1)C(=O)N[C@H](C(=O)N[C@@H](CC(C)C)C(=O)N[C@@H](CCCCN)C(=O)N[C@H](C(=O)N[C@@H](CC(N)=O)C(N)=O)C(C)C)[C@@H](C)O` [copper-64 labelled] has a tissue uptake of 5.24 ± 0.285 %ID/g (ex vivo gamma counting; C57BL/6J male mice, B16-F10 tumour, spleen; intravenous, 1.85 MBq, 5 min).
With `CN1Cc2cc(Cl)ccc2-n2c(nnc2C2CCN(c3cccc([18F])n3)CC2)C1` the tissue uptake was 6.68 ± 0.7 %ID/g (C57BL/6 mouse male, heart; intravenous, 3.7 MBq, 5 min).
